{"data": "Published values collected from several papers", "note": "Parts stem from different laboratories: compare values within a part only. Values joined by “and” are separate records of one study, mostly repeats; a detail may differ.", "UniProt P80192, sequence (whole entry, looked up)": "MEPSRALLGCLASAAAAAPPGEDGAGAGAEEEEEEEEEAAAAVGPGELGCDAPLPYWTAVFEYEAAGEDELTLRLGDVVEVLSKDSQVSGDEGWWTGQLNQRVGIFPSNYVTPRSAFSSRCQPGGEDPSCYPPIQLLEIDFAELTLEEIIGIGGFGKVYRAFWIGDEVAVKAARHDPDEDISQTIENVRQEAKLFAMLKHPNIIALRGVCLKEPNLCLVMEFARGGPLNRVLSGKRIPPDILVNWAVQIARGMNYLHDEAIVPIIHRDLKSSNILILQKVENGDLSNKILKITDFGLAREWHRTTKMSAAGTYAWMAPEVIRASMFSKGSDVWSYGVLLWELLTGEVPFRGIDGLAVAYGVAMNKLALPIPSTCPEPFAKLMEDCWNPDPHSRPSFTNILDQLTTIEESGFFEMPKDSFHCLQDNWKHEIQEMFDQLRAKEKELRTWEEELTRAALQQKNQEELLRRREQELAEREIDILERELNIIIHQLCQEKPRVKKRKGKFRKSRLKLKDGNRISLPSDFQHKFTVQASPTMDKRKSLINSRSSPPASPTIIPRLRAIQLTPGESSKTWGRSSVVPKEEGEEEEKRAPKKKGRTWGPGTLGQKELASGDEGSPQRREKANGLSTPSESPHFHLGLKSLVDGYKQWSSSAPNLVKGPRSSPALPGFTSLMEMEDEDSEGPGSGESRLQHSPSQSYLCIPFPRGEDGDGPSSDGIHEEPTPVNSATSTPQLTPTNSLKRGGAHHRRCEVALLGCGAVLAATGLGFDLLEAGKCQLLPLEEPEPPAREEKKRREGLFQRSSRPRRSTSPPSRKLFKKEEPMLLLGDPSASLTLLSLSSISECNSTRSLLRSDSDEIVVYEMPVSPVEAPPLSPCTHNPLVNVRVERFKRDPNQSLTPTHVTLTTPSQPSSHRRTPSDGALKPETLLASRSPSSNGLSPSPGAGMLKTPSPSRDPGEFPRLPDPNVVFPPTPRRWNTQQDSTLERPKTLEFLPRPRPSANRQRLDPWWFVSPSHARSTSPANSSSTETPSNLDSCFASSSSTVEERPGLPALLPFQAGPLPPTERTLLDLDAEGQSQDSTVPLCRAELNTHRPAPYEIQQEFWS", "UniProt Q6PHR2, sequence (whole entry, looked up)": "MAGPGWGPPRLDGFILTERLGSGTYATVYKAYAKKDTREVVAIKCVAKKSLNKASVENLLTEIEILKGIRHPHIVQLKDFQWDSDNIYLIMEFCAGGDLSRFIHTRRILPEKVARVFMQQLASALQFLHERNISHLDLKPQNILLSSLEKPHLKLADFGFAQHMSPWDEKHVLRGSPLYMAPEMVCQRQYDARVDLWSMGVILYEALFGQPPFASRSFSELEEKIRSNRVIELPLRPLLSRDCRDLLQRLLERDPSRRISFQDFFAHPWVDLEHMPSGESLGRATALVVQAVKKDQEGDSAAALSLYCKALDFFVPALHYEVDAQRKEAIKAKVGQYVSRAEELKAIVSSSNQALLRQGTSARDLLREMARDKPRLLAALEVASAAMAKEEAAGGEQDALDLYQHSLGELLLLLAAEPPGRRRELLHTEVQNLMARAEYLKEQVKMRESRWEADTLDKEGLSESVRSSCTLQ", "UniProt P29597, sequence (whole entry, looked up)": "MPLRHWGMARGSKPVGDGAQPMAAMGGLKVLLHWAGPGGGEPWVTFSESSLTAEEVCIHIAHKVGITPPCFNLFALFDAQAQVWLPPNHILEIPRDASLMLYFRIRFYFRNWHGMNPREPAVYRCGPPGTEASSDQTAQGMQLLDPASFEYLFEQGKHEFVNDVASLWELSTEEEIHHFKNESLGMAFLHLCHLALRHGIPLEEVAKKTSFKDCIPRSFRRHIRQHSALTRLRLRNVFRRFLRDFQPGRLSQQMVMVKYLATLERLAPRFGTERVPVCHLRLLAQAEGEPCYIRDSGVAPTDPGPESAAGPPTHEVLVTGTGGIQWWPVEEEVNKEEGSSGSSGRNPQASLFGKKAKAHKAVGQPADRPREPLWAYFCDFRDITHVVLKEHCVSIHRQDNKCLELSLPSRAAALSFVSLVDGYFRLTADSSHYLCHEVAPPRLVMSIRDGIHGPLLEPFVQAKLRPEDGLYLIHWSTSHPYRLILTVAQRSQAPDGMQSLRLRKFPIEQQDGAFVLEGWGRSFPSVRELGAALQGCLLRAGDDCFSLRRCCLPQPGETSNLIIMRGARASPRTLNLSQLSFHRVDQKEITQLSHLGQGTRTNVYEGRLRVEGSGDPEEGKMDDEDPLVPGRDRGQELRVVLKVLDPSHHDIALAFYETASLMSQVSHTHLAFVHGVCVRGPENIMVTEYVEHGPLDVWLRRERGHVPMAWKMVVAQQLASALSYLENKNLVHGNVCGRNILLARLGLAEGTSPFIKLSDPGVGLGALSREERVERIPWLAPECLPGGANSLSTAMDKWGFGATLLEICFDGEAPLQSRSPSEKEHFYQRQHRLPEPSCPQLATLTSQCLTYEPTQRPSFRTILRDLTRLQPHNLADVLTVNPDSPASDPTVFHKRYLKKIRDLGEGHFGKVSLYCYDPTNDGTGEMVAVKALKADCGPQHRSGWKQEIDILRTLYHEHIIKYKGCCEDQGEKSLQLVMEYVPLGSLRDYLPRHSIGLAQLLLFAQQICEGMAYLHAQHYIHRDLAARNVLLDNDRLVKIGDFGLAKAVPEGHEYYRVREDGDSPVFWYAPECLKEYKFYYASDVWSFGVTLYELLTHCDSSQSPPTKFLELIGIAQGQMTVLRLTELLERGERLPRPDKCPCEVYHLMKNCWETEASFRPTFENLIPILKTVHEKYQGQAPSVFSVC", "UniProt P53350, sequence (whole entry, looked up)": "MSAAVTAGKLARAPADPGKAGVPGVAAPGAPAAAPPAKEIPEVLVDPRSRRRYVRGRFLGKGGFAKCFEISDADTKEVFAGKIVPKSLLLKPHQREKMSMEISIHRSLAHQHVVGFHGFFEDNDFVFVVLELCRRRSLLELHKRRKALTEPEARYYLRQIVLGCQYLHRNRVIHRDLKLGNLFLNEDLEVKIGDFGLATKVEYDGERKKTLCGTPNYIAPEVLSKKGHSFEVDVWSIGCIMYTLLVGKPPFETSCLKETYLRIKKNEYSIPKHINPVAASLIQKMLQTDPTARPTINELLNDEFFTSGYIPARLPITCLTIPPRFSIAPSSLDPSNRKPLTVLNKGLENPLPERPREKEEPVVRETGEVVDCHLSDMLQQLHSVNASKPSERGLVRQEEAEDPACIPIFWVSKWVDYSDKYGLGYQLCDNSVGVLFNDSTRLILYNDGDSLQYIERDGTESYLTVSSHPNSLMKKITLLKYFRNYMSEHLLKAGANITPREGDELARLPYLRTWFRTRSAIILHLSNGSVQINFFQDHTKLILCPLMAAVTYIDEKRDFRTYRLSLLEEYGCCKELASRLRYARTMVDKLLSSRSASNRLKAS", "UniProt P51812, sequence (whole entry, looked up)": "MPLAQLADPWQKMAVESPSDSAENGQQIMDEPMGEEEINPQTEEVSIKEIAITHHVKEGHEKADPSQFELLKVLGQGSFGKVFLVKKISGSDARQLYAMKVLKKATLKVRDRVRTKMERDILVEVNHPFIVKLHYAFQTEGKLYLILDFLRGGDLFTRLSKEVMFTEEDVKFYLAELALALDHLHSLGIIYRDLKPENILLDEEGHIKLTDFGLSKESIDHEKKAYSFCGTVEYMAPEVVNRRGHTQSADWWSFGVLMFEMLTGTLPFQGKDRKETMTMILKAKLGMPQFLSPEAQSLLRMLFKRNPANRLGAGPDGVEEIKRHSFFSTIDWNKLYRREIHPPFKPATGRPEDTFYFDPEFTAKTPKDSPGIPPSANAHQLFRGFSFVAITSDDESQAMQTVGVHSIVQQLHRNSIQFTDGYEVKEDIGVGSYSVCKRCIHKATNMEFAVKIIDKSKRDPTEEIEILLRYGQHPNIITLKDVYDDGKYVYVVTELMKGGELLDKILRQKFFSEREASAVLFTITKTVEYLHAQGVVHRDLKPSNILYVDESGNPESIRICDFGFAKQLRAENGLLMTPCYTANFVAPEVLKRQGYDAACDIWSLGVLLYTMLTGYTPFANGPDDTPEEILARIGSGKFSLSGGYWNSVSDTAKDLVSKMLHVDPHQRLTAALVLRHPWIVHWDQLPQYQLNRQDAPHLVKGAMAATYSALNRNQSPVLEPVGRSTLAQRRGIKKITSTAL", "UniProt P15735, sequence (whole entry, looked up)": "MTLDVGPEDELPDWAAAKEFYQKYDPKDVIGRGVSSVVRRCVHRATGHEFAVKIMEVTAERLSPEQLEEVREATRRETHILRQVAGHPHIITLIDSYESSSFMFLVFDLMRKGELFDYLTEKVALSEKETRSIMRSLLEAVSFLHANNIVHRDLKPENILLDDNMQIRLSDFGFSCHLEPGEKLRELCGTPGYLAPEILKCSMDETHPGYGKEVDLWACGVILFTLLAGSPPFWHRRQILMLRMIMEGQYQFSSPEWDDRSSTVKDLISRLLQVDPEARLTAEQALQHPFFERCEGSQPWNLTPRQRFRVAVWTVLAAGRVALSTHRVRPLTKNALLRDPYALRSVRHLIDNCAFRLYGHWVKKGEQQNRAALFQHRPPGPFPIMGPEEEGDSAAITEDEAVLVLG"}
{"data": "Study 1", "Structure (SMILES)": "CC(=O)N1CCC(c2ccc(C(=O)NC(=N)N)cc2C(F)(F)F)CC1", "observed": "cell-free assay", "technique": "competition with immobilised ligand", "tested at": "1 µM"}
{"target": "Mitogen-activated protein kinase 10 (MAPK10, Homo sapiens, UniProt P53779)", "remaining binding [%]": 100}
{"target": "Mitogen-activated protein kinase 12 (MAPK12, Homo sapiens, UniProt P53778)", "remaining binding [%]": 77}
{"target": "TGF-beta receptor type-2 (TGFBR2, Homo sapiens, UniProt P37173)", "remaining binding [%]": 100}
{"target": "Serine/threonine-protein kinase 33 (STK33, Homo sapiens, UniProt Q9BYT3)", "remaining binding [%]": 100}
{"target": "3-phosphoinositide-dependent protein kinase 1 (PDPK1, Homo sapiens, UniProt O15530)", "remaining binding [%]": 100}
{"target": "Mitogen-activated protein kinase 14 (MAPK14, Homo sapiens, UniProt Q16539)", "remaining binding [%]": 100}
{"target": "Mitogen-activated protein kinase 9 (MAPK9, Homo sapiens, UniProt P45984)", "remaining binding [%]": 95}
{"target": "Ribosomal protein S6 kinase beta-1 (RPS6KB1, Homo sapiens, UniProt P23443)", "remaining binding [%]": 100}
{"target": "Tyrosine-protein kinase ABL1, phosphorylated (ABL1, Homo sapiens, UniProt P00519, F317L)", "remaining binding [%]": 92}
{"target": "Cyclin-dependent kinase 16 (CDK16, Homo sapiens, UniProt Q00536)", "remaining binding [%]": 91}
{"target": "Microtubule-associated serine/threonine-protein kinase 1 (MAST1, Homo sapiens, UniProt Q9Y2H9)", "remaining binding [%]": 49}
{"target": "Serine/threonine-protein kinase ULK3 (ULK3, Homo sapiens, UniProt Q6PHR2)", "remaining binding [%]": 80}
{"target": "Non-receptor tyrosine-protein kinase TYK2, JH2 (TYK2, Homo sapiens, UniProt P29597)", "remaining binding [%]": 100}
{"target": "Serine/threonine-protein kinase pim-3 (PIM3, Homo sapiens, UniProt Q86V86)", "remaining binding [%]": 100}
{"target": "Tyrosine-protein kinase ABL1, non-phosphorylated (ABL1, Homo sapiens, UniProt P00519, Q252H)", "remaining binding [%]": 79}
{"target": "Serine/threonine-protein kinase MARK2 (MARK2, Homo sapiens, UniProt Q7KZI7)", "remaining binding [%]": 100}
{"target": "Cyclin-dependent kinase 4, with cyclin D1 (CDK4, Homo sapiens, UniProt P11802)", "remaining binding [%]": 97}
{"target": "Mitogen-activated protein kinase kinase kinase 9 (MAP3K9, Homo sapiens, UniProt P80192)", "remaining binding [%]": 100}
{"target": "Serine/threonine-protein kinase tousled-like 1 (TLK1, Homo sapiens, UniProt Q9UKI8)", "remaining binding [%]": 100}
{"target": "Misshapen-like kinase 1 (MINK1, Homo sapiens, UniProt Q8N4C8)", "remaining binding [%]": 95}
{"target": "Hormonally up-regulated neu tumor-associated kinase (HUNK, Homo sapiens, UniProt P57058)", "remaining binding [%]": 100}
{"target": "Ribosomal protein S6 kinase alpha-1, C-terminal kinase domain (RPS6KA1, Homo sapiens, UniProt Q15418)", "remaining binding [%]": 100}
{"target": "Cyclin-dependent kinase 3 (CDK3, Homo sapiens, UniProt Q00526)", "remaining binding [%]": 100}
{"target": "Serine/threonine-protein kinase SIK3 (SIK3, Homo sapiens, UniProt Q9Y2K2)", "remaining binding [%]": 100}
{"target": "G protein-coupled receptor kinase 3 (GRK3, Homo sapiens, UniProt P35626)", "remaining binding [%]": 92}
{"data": "Study 2", "target": "Calcium/calmodulin-dependent protein kinase type II subunit alpha (CAMK2A, Homo sapiens, UniProt Q9UQM7)", "observed": "enzyme activity", "action": "inhibitor", "tested at": "10 µM", "UniProt Q9UQM7, sequence (whole entry, looked up)": "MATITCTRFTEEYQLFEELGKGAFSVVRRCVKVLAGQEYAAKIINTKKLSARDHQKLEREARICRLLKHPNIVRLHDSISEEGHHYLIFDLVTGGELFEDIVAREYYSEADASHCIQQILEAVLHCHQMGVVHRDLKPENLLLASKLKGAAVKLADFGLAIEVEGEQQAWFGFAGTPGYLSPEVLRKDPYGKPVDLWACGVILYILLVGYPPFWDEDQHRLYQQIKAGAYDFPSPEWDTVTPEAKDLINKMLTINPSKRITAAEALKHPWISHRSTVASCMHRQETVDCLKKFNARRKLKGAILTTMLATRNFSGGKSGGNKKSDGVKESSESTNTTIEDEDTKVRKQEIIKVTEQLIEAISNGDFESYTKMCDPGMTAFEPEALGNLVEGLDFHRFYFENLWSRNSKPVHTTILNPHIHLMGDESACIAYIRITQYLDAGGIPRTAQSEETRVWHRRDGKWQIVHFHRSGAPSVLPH"}
{"Structure (SMILES)": "C[C@@H]1CC[C@]2(C(=O)O[C@@H]3O[C@H](CO)[C@@H](O)[C@H](O)[C@H]3O)CC[C@]3(C)C(=CC[C@@H]4[C@@]5(C)C[C@@H](O)[C@H](O)[C@@](C)(CO)[C@@H]5CC[C@]43C)[C@@H]2[C@]1(C)O", "inhibition": "1%"}
{"Structure (SMILES)": "C=CC(C)(CCC=C(C)C)OC(C)=O (centres unmarked)", "inhibition": "-63%"}
{"Structure (SMILES)": "CC(/C=C/C=C(\\C)C(=O)O[C@@H]1O[C@H](CO)[C@@H](O)[C@H](O)[C@H]1O)=C\\C=C\\C=C(C)\\C=C\\C=C(/C)C(=O)O[C@@H]1O[C@H](CO[C@@H]2O[C@H](CO)[C@@H](O)[C@H](O)[C@H]2O)[C@@H](O)[C@H](O)[C@H]1O", "inhibition": "1%"}
{"Structure (SMILES)": "C[C@@H](O)[C@H](N)C(=O)O (racemic)", "inhibition": "1%"}
{"Structure (SMILES)": "C[C@H](CC[C@@H](O[C@@H]1O[C@H](CO)[C@@H](O)[C@H](O)[C@H]1O[C@@H]1O[C@H](CO)[C@@H](O)[C@H](O)[C@H]1O)C(C)(C)O)[C@H]1CC[C@@]2(C)[C@H]3CC=C4[C@@H](CC[C@H](O[C@@H]5O[C@H](CO[C@@H]6O[C@H](CO)[C@@H](O)[C@H](O)[C@H]6O)[C@@H](O)[C@H](O)[C@H]5O)C4(C)C)[C@]3(C)[C@H](O)C[C@]12C", "inhibition": "-31%"}
{"Structure (SMILES)": "C=CC(=O)N1CCN(c2nc(=O)n(-c3c(C)ccnc3C(C)C)c3nc(-c4c(O)cccc4F)c(F)cc23)[C@@H](C)C1 (racemic)", "inhibition": "-0.05%"}
{"Structure (SMILES)": "CCOC(=O)[C@@H](N)Cc1ccc(-c2cc(O[C@H](c3ccc(Cl)cc3-n3ccc(C)n3)C(F)(F)F)nc(N)n2)cc1", "inhibition": "-0.15% and -0.05%"}
{"Structure (SMILES)": "C=C(C)[C@@H]1CC[C@]2(CO)CC[C@]3(C)[C@H](CC[C@@H]4[C@@]5(C)CC[C@H](O)C(C)(C)[C@@H]5CC[C@]43C)[C@@H]12", "inhibition": "-30%"}
{"Structure (SMILES)": "O=P(O)(O)O[C@H]1O[C@H](CO)[C@@H](O)[C@H](O)[C@H]1O", "inhibition": "30%"}
{"Structure (SMILES)": "Cc1cccc(C)c1N(CC(=O)Nc1ccc(-c2ncon2)cc1)C(=O)C1CCS(=O)(=O)CC1", "inhibition": "-9%"}
{"Structure (SMILES)": "COc1cc(/C=C/c2ccc(O)cc2)cc(OC)c1", "inhibition": "-32%"}
{"data": "Study 3", "Structure (SMILES)": "CC#CC(=O)N1CCC[C@H]1c1nc(-c2ccc(C(=O)Nc3ccccn3)cc2)c2c(N)nccn12", "action": "inhibitor", "tested at": "1 µM"}
{"target": "Casein kinase I isoform alpha-like (CSNK1A1L, Homo sapiens, UniProt Q8N752)", "observed": "enzyme activity", "inhibition [%]": 0}
{"target": "Serine/threonine-protein kinase 32B (STK32B, Homo sapiens, UniProt Q9NY57)", "observed": "enzyme activity", "inhibition [%]": 20}
{"target": "Receptor-type tyrosine-protein kinase FLT3 (FLT3, Homo sapiens, UniProt P36888)", "observed": "enzyme activity", "inhibition [%]": 6}
{"target": "Vascular endothelial growth factor receptor 1 (FLT1, Homo sapiens, UniProt P17948)", "observed": "enzyme activity", "inhibition [%]": 19}
{"target": "Proto-oncogene tyrosine-protein kinase receptor Ret (RET, Homo sapiens, UniProt P07949, M918T)", "observed": "enzyme activity", "inhibition [%]": 3}
{"target": "Rhodopsin kinase GRK7 (GRK7, Homo sapiens, UniProt Q8WTQ7)", "observed": "enzyme activity", "inhibition [%]": 6}
{"target": "Phosphatidylinositol 4,5-bisphosphate 3-kinase catalytic subunit alpha isoform (PIK3CA, Homo sapiens, UniProt P42336, M1043I)", "observed": "enzyme activity", "inhibition [%]": 0}
{"target": "Tyrosine-protein kinase ABL1, phosphorylated (ABL1, Homo sapiens, UniProt P00519, F317I)", "observed": "enzyme activity", "inhibition [%]": 0}
{"target": "Serine/threonine-protein kinase PAK 3 (PAK3, Homo sapiens, UniProt O75914)", "observed": "enzyme activity", "inhibition [%]": 6}
{"target": "Ribosomal protein S6 kinase alpha-3, C-terminal kinase domain (RPS6KA3, Homo sapiens, UniProt P51812)", "inhibition [%]": 0}
{"data": "Study 4", "SMILES": "CCN1/C(=C/C(C)=O)Sc2ccc(OC)cc21", "observed": "enzyme activity", "action": "inhibitor", "tested at": "0.5 µM", "baseline": "control"}
{"target": "BDNF/NT-3 growth factors receptor (NTRK2, Homo sapiens, UniProt Q16620)", "remaining activity": "104%"}
{"target": "Serine/threonine-protein kinase ULK1 (ULK1, Homo sapiens, UniProt O75385)", "remaining activity": "115%"}
{"target": "Phosphorylase b kinase gamma catalytic chain, liver/testis isoform (PHKG2, Homo sapiens, UniProt P15735)", "remaining activity": "94.6%"}
{"target": "Serine/threonine-protein kinase Sgk3 (SGK3, Homo sapiens, UniProt Q96BR1)", "remaining activity": "93.4%"}
{"target": "Tyrosine-protein kinase HCK (HCK, Homo sapiens, UniProt P08631)", "remaining activity": "97.5%"}
{"target": "Dual specificity tyrosine-phosphorylation-regulated kinase 2 (DYRK2, Homo sapiens, UniProt Q92630)", "remaining activity": "19.5%"}
{"target": "Serine/threonine-protein kinase D3 (PRKD3, Homo sapiens, UniProt O94806)", "remaining activity": "62.5%"}
{"target": "Mitogen-activated protein kinase kinase kinase kinase 5 (MAP4K5, Homo sapiens, UniProt Q9Y4K4)", "remaining activity": "92.3%"}
{"target": "Fibroblast growth factor receptor 2 (FGFR2, Homo sapiens, UniProt P21802)", "remaining activity": "97.1%"}
{"target": "Serine/threonine-protein kinase TAO1 (TAOK1, Homo sapiens, UniProt Q7L7X3)", "remaining activity": "92.4%"}
{"target": "Dual serine/threonine and tyrosine protein kinase (DSTYK, Homo sapiens, UniProt Q6XUX3)", "remaining activity": "90.6%"}
{"target": "Mitogen-activated protein kinase kinase kinase 9 (MAP3K9, Homo sapiens, UniProt P80192)", "remaining activity": "98.8%"}
{"target": "Serine/threonine-protein kinase PLK1 (PLK1, Homo sapiens, UniProt P53350)", "remaining activity": "97%"}
{"target": "Serine/threonine-protein kinase VRK1 (VRK1, Homo sapiens, UniProt Q99986)", "remaining activity": "98.2%"}
{"target": "RAF proto-oncogene serine/threonine-protein kinase (RAF1, Homo sapiens, UniProt P04049)", "remaining activity": "95.9%"}
{"target": "Platelet-derived growth factor receptor beta (PDGFRB, Homo sapiens, UniProt P09619)", "remaining activity": "107%"}
{"target": "Receptor-interacting serine/threonine-protein kinase 2 (RIPK2, Homo sapiens, UniProt O43353)", "remaining activity": "86.3%"}
{"target": "Activin receptor type-1 (ACVR1, Homo sapiens, UniProt Q04771)", "remaining activity": "88.1%"}
{"target": "Insulin receptor-related protein (INSRR, Homo sapiens, UniProt P14616)", "remaining activity": "91.6%"}
